Experimental data collected from several papers.
Several values in a cell are separate wells, animals, samples, runs or records. Numbers after ± are the reported error.

| SMILES | target or system | test | system | conditions | how to read | measurement | value |
| --- | --- | --- | --- | --- | --- | --- | --- |
| O=C1NC2(CC2)COc2ncc(F)cc2[C@H]2COCCN2c2ccn3ncc1c3n2 |  |  | Sprague-Dawley rats, female, blood | oral, 10 mg/kg/day, end of recovery, 4-week subacute toxicity |  | APTT | 14.8 ± 1.7 s |
| Cc1cc(Oc2nc(N3CC[C@@H](c4ccncc4)C3)ncc2F)[nH]n1 | Mycobacterium tuberculosis | OD | H37Rv PurF CRISPRi knockdown | 0.0625 µM, together with: anhydrotetracycline low |  | normalised growth | 2% |
| [2H]C([2H])([2H])C1(C([2H])([2H])[2H])NC(=O)N(c2ccc(F)c(C(F)(F)F)c2)C1=O | Schistosoma mansoni |  | adult, infected mice | oral, single dose |  | ED50 | 8 mg/kg |
| O=C(O)C(Cl)Cl.OCCN(CCO)CCO | Chenopodium album | herbicidal activity |  | 15 mg/mL, 21 days, post-emergence greenhouse |  | inhibition | -68% |
| O=C(C[Se]C(=O)c1ccco1)Nc1cccc(C(F)(F)F)c1 | NCI60 ovarian subpanel | cell growth, inhibitor |  | five-dose |  | GI50 | 2.99 µM |
| O=C(O)c1ccc(-c2nc(-c3ccccc3Cl)c3sccn23)cc1 |  |  | C57BL/6 mice, 5-fluorouracil treated | dose not given, day 26 |  | reticulated platelets | 13.4% and 14.9% and 18.7% |
| Cc1cc(C(=O)Nc2nc3cccc(C)c3n2[C@H]2CCCCN(C(=O)/C=C/CN(C)C)C2)ccn1 | Trypanosoma brucei | propidium iodide flow cytometry | bloodstream form | concentration not given, 72 h |  | cells in G2 phase | 28.3% |
| CC(C)(C)C(=O)OCOP(=O)(OCOC(=O)C(C)(C)C)C1CCCN(O)C1=O (centres unmarked) | UACC-62 |  |  |  |  | TGI | 2.1 µM |
| CC(C)CC(C(=O)N1CC2(CC1C#N)C(=O)Nc1ccccc12)N(C)C(=O)c1cc2c(F)cc(F)c(F)c2[nH]1 (centres unmarked) | Human coronavirus 229E | cytopathic effect | MRC5 | 1.852 nM |  | inhibition | 19% |
| CCN(CC)C(=O)[C@@H]1C=C2c3cccc4c3c(cn4C(=O)c3ccco3)C[C@H]2N(C)C1 |  | magnetometer | C57BL/6J mouse, male | intraperitoneal, 0.5 mg/kg, 30 min session |  | head-twitch response count | 50.8 |
| CN1C(=O)C(C2C3=C(CCCC3=O)Oc3ccc(Br)cc32)C(=O)N(C)C1=O (centres unmarked) | 3T3-L1 | cell growth or viability, MTT |  | 72 h |  | IC50 | > 100 µg/mL |
| COc1ccccc1-c1n[nH]c2nc(N[C@H]3CC[C@H](NS(=O)(=O)CC(C)C)CC3)ncc12 |  | bead binding, competition bead pull-down, item: LINJ.05.0350 | Leishmania donovani extract | 10 µM | baseline: vehicle | relative abundance | 1.34 |
| O=C(C[Se]C(=O)c1cccs1)Nc1cccc(C(F)(F)F)c1 | NCI60 ovarian subpanel | cell growth |  | 10 µM, 48 h, one-dose |  | mean growth percent | -76.7% |
| CCN(CC)C(=O)[C@@H]1C=C2c3cccc4c3c(cn4C(=O)c3cccs3)C[C@H]2N(C)C1 |  | magnetometer | C57BL/6J mouse, male | intraperitoneal, 6 mg/kg, 30 min session |  | head-twitch response count | 40 |
| CNCCc1c[nH]c2ccc(O)cc12 | NMT from Rhinella marina |  |  | 10 min, 30 °C |  | kcat | 0.0014 s⁻¹ |
| COc1ccccc1-c1n[nH]c2nc(NC3CCN(C(=O)Cc4ccc(F)cc4F)CC3)ncc12 |  | bead binding, competition bead pull-down, item: LINJ.26.0770 | Leishmania donovani axenic amastigote extract | 10 µM | baseline: vehicle | relative abundance | 0.98 |
| CC1(C)CC(=O)C2=C(C1)Oc1ccccc1C2C1C(=O)NC(=O)NC1=O (centres unmarked) | 3T3-L1 mature adipocytes | lipolysis, Oil Red O staining |  | IC20 |  | mean lipid content | 0.602 OD492 |
| Nc1ncc(-c2cc(-c3cnn(CC(F)(F)F)c3)ncc2F)nc1C(=O)NC1CNCC(F)C1 (centres unmarked) | KIT V559D V654A | KINOMEscan |  | 1 µM |  | remaining binding | 35% |
| CC[C@H](C)[C@@H]1NC(=O)CNC(=O)[C@@H]2Cc3c([nH]c4ccccc34)SC[C@H](NC(=O)CNC1=O)C(=O)N[C@@H](CC(=O)NCc1cn(CCNC(=O)OCCSSCCC(=O)NCc3cn(CC(=O)N[C@H](Cc4ccccc4)C(=O)N[C@H]4CSSC[C@@H](C(=O)N[C@H](C(=O)O)[C@@H](C)O)NC(=O)[C@H]([C@@H](C)O)NC(=O)[C@H](CCCCN)NC(=O)[C@@H](Cc5c[nH]c6ccccc56)NC(=O)[C@H](Cc5ccc(O)cc5)NC4=O)nn3)nn1)C(=O)N1C[C@H](O)C[C@H]1C(=O)N[C@@H]([C@@H](C)[C@@H](O)CO)C(=O)N2 | AR-42J | receptor binding, blocking agent, fluorescence microscopy |  | 250 nM, 30 min, 37 °C, together with: TATE-SS-rhodamine 5 nM | baseline: tracer alone | remaining fluorescence | 5% |
| Cc1ccc(NS(=O)(=O)c2c(C(=O)N3CCCCCC3)c(C)n(C)c2C)c(Cl)c1 | Human alphaherpesvirus 1 | viral infection | HaCaT | 11.11 µM, 36 h | baseline: untreated | infection | 101% and 123% and 103% |

A few entries again:
| SMILES | target or system | test | system | conditions | how to read | measurement | value |
| --- | --- | --- | --- | --- | --- | --- | --- |
| O=C(O)C(Cl)Cl.OCCN(CCO)CCO | Chenopodium album | herbicidal activity |  | 15 mg/mL, 21 days, post-emergence greenhouse |  | inhibition | -68% |
| O=C(C[Se]C(=O)c1ccco1)Nc1cccc(C(F)(F)F)c1 | NCI60 ovarian subpanel | cell growth, inhibitor |  | five-dose |  | GI50 | 2.99 µM |
